# Published values pooled from the literature.
# Every numbered part comes from another study and shows a few of its results, in no order. Positions count from the first letter of the parent shown.

# Sample 1 — technique: protein-binding microarray; molecule type: double-stranded DNA, one strand shown; medium: in vitro; concentration: 250 nM; setting: 60-bp whole probe; together with: salmon DNA 0.4 mg/ml; relative to: random background probes; direction: higher = stronger binding; constant ends, left off below: GCCTAGCAC … GTCTTGATTCGCTTGACGCTGCTG
# Target: Interferon regulatory factor 7, full length, phosphomimetic (IRF7, Homo sapiens, UniProt Q92985, residues 1-503, S101K/S471D/S472D/S475D/S476D/S477D/S483D/S484D/S487D)
# Residues (chain): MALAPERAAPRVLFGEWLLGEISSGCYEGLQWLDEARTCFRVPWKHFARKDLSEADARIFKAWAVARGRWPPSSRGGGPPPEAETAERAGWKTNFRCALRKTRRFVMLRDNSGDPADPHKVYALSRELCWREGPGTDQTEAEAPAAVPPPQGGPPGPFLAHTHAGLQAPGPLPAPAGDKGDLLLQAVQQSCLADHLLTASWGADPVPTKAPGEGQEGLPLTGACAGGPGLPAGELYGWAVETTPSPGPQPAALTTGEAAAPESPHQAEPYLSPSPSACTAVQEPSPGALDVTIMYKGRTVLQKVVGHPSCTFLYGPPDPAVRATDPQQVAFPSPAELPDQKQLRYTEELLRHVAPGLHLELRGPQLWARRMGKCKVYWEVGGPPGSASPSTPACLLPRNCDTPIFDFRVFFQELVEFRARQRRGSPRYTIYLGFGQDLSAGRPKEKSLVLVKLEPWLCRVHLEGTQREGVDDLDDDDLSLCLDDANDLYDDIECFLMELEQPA
Oligonucleotide,log fluorescence [z-score]
TACGGTATCGACACTGGGGACGTGCTA,-0.0568
ACCACTCCAGTTCTGGGAAAGTGCTAG,0.111
TGGGCTACCTCTCTTAGAATGTGCTAG,-0.931
GACGGTTACGGTTTCGGGACGTGCTAG,4.48
TTAGGTCTCGGTCTCAGTTAGTGCTAG,1.3
TCAAATTTACTTTGGTTACTGTGCTAG,0.151
TTAGATCTCAGTATCGATTGGTGCTAG,1.13
AACCTTATTAAGATTGTGCAAGTGCTA,0.0251

# Sample 2 — technique: protein binding microarray; molecule type: double-stranded DNA, one strand shown; medium: in vitro; concentration: not given; relative to: not given; direction: higher = stronger binding
# Target: Histone acetyltransferase KAT6A, winged helix 2, GST fusion (KAT6A, Homo sapiens, UniProt Q92794, residues 85-181)
# Setting: 8-mer, flanks averaged, mean of 2 arrays, mostly near background
# Construct (chain): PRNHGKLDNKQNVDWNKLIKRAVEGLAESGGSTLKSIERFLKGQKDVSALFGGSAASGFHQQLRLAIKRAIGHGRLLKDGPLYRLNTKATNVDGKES
Oligonucleotide,E-score
AATTTGAC,0.127
AAGATTTA,0.087
GTTCACCA,0.0216
ACTGGGTA,-0.00647
ACTCTGTC,0.0322
CAAGGACC,0.000795
ACTGAGAT,-0.275
CAAATGGC,-0.084
ATCGCGAA,0.164
GAACACTA,-0.172

# Sample 3 — target: CRIPT, C-terminal peptide; technique: DHFR complementation, deep sequencing; medium: yeast; relative to: wild type; direction: higher = weaker binding
# Setting: single substitutions, model-inferred values
# Starting sequence: ERBIN, PDZ domain 1 (human); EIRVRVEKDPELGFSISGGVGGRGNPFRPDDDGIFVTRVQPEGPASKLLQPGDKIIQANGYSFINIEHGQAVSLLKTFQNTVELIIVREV; partner TKNYKQTSV
Variant,binding free energy change [kcal/mol]
P51E,0.191
I55Q,0.0491
S73Y,0.0271
P44F,1.29
I64W,-0.0943
L12P,1.1
T37R,1.23
K54T,1.02
G60R,0.159

# Sample 4 — technique: Sort-seq; item: YFP reporter; medium: E. coli; setting: PhoQ-PhoP variant library; together with: 10 µM Mg2+; relative to: high Mg2+ state; direction: higher = stronger signaling
# Substance: PhoQ, residues 284 288 289 292 302 303 ALAMYF
target,fold induction
"PhoP, residues 12 14 15 18 19 QYCSL (Escherichia coli, UniProt P23836)",3.65
"PhoP, residues 12 14 15 18 19 STHWV (Escherichia coli, UniProt P23836)",11
"PhoP, residues 12 14 15 18 19 SHWTV (Escherichia coli, UniProt P23836)",3.83

# A few entries again (sample 1):
Oligonucleotide,log fluorescence [z-score]
TACGGTATCGACACTGGGGACGTGCTA,-0.0568
ACCACTCCAGTTCTGGGAAAGTGCTAG,0.111
